Results pooled from the literature.
Parts stem from different laboratories: compare values within a part only. Substitutions count along the parent as printed.

Set 1 — technique: protein-binding microarray; molecule type: double-stranded DNA, one strand shown; medium: in vitro; tested at: not given; reading: higher = stronger binding; quantity: E-score
Target: Protein C-ets-1 (ETS1, Homo sapiens, UniProt P14921, residues 1-441, full length assumed)
Setting: k-mer, scored over probes, only values ≥0.25
Residues (chain): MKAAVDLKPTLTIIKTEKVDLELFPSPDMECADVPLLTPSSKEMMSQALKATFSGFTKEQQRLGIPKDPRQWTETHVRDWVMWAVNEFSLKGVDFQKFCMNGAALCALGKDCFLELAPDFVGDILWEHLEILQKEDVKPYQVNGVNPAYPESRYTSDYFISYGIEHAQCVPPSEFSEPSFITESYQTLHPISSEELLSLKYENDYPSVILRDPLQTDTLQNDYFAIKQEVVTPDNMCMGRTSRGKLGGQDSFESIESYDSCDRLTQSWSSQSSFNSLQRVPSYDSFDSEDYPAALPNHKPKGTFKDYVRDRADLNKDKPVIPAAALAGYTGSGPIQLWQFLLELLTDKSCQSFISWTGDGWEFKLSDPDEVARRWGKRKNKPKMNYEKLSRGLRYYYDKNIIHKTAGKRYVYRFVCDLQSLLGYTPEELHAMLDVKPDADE
AAGCGGAA: 0.457
GGGTGGTA: 0.259
CGGAAACC: 0.472
ACTTCCCA: 0.397
GCCGGACA: 0.31
CACCGGAA: 0.49
ATCCGCTC: 0.419
ACGTTTCC: 0.404

Set 2 — technique: universal PBM; molecule type: double-stranded DNA, one strand shown; medium: in vitro; tested at: 600 nM; reading: higher = stronger binding; quantity: E-score
Target: Sal-like protein 4, full length isoform A (SALL4, Homo sapiens, UniProt Q9UJQ4, residues 1-1053)
UniProt Q9UJQ4, sequence (whole entry, looked up): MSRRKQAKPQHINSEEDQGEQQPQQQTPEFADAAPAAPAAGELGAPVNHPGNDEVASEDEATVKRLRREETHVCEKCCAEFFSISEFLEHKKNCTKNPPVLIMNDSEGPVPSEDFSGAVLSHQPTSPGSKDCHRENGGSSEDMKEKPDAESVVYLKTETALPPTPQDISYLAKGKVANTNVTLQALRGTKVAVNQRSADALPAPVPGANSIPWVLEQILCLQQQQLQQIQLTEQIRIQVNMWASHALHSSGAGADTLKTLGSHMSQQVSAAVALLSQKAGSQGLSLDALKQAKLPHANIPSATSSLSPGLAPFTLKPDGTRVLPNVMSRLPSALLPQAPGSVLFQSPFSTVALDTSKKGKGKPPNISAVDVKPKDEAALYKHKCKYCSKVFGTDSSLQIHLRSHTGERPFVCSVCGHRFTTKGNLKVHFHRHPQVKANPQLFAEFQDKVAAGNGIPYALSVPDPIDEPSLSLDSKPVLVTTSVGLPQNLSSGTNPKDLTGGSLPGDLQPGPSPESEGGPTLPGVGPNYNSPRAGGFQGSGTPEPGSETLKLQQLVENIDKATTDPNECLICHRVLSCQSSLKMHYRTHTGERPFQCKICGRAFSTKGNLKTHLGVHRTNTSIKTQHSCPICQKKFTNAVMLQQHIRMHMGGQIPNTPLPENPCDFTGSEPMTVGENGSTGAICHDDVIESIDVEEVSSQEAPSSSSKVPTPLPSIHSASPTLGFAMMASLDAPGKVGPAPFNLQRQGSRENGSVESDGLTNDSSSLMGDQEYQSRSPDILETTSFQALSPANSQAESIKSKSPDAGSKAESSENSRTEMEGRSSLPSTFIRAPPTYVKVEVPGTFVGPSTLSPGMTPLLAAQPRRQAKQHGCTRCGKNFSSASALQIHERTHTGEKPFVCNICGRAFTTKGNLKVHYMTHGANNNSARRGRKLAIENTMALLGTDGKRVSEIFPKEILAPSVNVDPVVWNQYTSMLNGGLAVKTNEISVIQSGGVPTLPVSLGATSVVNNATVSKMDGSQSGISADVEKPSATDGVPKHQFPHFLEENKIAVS
Setting: 8-mer, flanks averaged, mean of replicates
GATGTCTA: 0.169
CTATCCTA: -0.0425
ACGAAGCT: -0.141
ATCAGTTC: -0.071
TAAATTGA: 0.278
CCCATTCA: -0.019
CAAGGCTG: -0.13
ATCCTGGC: -0.0573

Other studies, line by line
P1: viral docking peptide; KKAKRRLFTISDS; partner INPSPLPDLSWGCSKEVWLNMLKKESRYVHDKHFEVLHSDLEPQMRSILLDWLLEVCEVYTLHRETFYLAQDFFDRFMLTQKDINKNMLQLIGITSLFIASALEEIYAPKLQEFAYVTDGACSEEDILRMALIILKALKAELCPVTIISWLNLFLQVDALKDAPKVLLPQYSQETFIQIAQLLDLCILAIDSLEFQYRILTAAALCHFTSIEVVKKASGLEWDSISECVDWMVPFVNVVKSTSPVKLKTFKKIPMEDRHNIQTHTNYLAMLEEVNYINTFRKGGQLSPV
PSMA3 (Homo sapiens, UniProt P25788) — interaction screen (PSMA6 (Homo sapiens, UniProt P60900); cross-linking MS; hits only): cross-linked
P1 L7A — normalised enrichment score (CCNE2, cyclin fold, Cln2 fusion (human); yeast growth competition, sequencing; yeast; strong parent motif; baseline: not given, higher = stronger binding): 0.148
DNAJC8 (Homo sapiens, UniProt O75937) — cross-linked residues (SF3A2 (Homo sapiens, UniProt Q15428); cross-linking MS; cell fractions; with: DSSO): K183 to K42
PHB1 (Homo sapiens, UniProt P35232) — interaction screen (OCIAD1 (Homo sapiens, UniProt Q9NX40); cross-linking MS; hits only): cross-linked
SEC61B (Homo sapiens, UniProt P60468) — cross-linked residues (LRRC59 (Homo sapiens, UniProt Q96AG4); cross-linking MS; cell fractions; with: DMTMM): P2 to D117

Some of these lines once more (set 1):
CACCGGAA: 0.49
ATCCGCTC: 0.419
